Results pooled from the literature.
Lines come from different studies, so protocols differ.

SMILES = CCCCCCCC/C=C/CCCCCCCC(=O)O; target = biotinylated rabbit IgG; conditions = 11-point dose-response, protein A and streptavidin binding; measurement = maximum response; value = 19.2%
SMILES = CCCCCC(=O)CC(=O)N[C@H]1CCOC1=O; target = ExpR2 (Pectobacterium carotovorum); test = cellulase activity, agonist; system = Pectobacterium carotovorum, single-ExpR2 strain; conditions = 200 µM, 4 h; how to read = relative to: OHHL; measurement = activation; value = 78%
SMILES = CCOP(=S)(OCC)Oc1ccc2c(C)c(Cl)c(=O)oc2c1; target = nanobody A4; test = binding, ic-ELISA; conditions = together with: H1-OVA coating antigen; measurement = IC50; value = 0.0891 µg/mL
SMILES = O=C(Nc1cccnn1)N1CCN([C@@H]2CCOc3cc(C(F)(F)F)ccc32)CC1; target = L-type calcium channel, verapamil site; test = binding; conditions = 20 µM; measurement = inhibition; value = -6%
SMILES = CCOP(=S)(OCC)O/N=C(\C#N)c1ccccc1; target = nanobody A4; test = ic-ELISA; conditions = concentration not given; how to read = relative to: coumaphos IC50 over compound IC50, mass basis; measurement = cross-reactivity; value = 6%
SMILES = O=C(CCc1ccc(Br)cc1)N[C@H]1CCOC1=O; target = ExpR2 (Pectobacterium carotovorum); test = cellulase activity, antagonist; system = Pectobacterium carotovorum, single-ExpR2 strain; conditions = 5 µM, 4 h, together with: OHHL 5 µM; measurement = inhibition; value = 66%
SMILES = N.N.[Cl][Pt][Cl]; target = biotinylated rabbit IgG; conditions = 11-point dose-response, protein A and streptavidin binding; measurement = maximum response; value = -95.5%
SMILES = Nc1nc2c(ncn2[C@@H]2O[C@@H]3COP(=O)(O)O[C@H]4[C@@H](O)[C@H](n5cnc6c(N)ncnc65)O[C@@H]4COP(=O)(O)O[C@@H]2[C@@H]3O)c(=O)[nH]1; target = STING (human); test = Blue-Native PAGE; system = HEK293T expressing STING; conditions = 100 µM; measurement = time to peak STING oligomerization; value = ≤ 10 min
SMILES = CCOP(=S)(OCC)Oc1nc(Cl)c(Cl)cc1Cl; target = nanobody A4; test = ic-ELISA; conditions = concentration not given; how to read = relative to: coumaphos IC50 over compound IC50, molar basis; measurement = cross-reactivity; value = < 1%
SMILES = CCCCCCCCCC(=O)N[C@H]1CCOC1=O; target = ExpR2 (Pectobacterium carotovorum); test = cellulase activity, agonist; system = Pectobacterium carotovorum, single-ExpR2 strain; conditions = 200 µM, 4 h; how to read = relative to: OHHL; measurement = activation; value = 44%
SMILES = COC(=O)Nc1nc2ccc(C(=O)c3ccccc3)cc2[nH]1; target = biotinylated rabbit IgG; conditions = 11-point dose-response, protein A and streptavidin binding; measurement = maximum response; value = -3.4%
SMILES = COc1cc(Nc2ncc(F)c(Nc3ccc4c(n3)NC(=O)C(C)(C)O4)n2)cc(OC)c1OC; target = VEGF; measurement = IC50; value = > 10 µM
SMILES = O=C(Cc1cccc2ccccc12)N[C@H]1CCOC1=O; target = ExpR2 (Pectobacterium carotovorum); test = cellulase activity, agonist; system = Pectobacterium carotovorum, single-ExpR2 strain; conditions = 200 µM, 4 h; how to read = relative to: OHHL; measurement = activation; value = 95%
SMILES = CCOP(=S)(OCC)SCn1c(=O)oc2cc(Cl)ccc21; target = nanobody A4; test = ic-ELISA; conditions = concentration not given; how to read = relative to: coumaphos IC50 over compound IC50, mass basis; measurement = cross-reactivity; value = 3%
SMILES = COC(=O)Nc1nc2ccc([S+]([O-])c3ccccc3)cc2[nH]1 (centres unmarked); target = biotinylated rabbit IgG; conditions = 11-point dose-response, protein A and streptavidin binding; measurement = maximum response; value = 13%
SMILES = O=C(Cc1cccc(Cl)c1)N[C@H]1CCOC1=O; target = ExpR2 (Pectobacterium carotovorum); test = cellulase activity, antagonist; system = Pectobacterium carotovorum, single-ExpR2 strain; conditions = 5 µM, 4 h, together with: OHHL 5 µM; measurement = inhibition; value = 54%
SMILES = CCOP(=S)(OCC)SCCSCC; target = nanobody A4; test = ic-ELISA; conditions = concentration not given; how to read = relative to: coumaphos IC50 over compound IC50, molar basis; measurement = cross-reactivity; value = < 1%

Repeated from above:
SMILES = O=C(Cc1cccc2ccccc12)N[C@H]1CCOC1=O; target = ExpR2 (Pectobacterium carotovorum); test = cellulase activity, agonist; system = Pectobacterium carotovorum, single-ExpR2 strain; conditions = 200 µM, 4 h; how to read = relative to: OHHL; measurement = activation; value = 95%
